Measured values collected from several papers.
Protocols differ between the studies behind these lines.
lasR: Transcriptional activator protein LasR (lasR, Pseudomonas aeruginosa, UniProt P25084)
APP: Amyloid-beta precursor protein (APP, Homo sapiens, UniProt P05067)

With `CCCCCCc1cn(-c2ccc(C(=O)N[C@H]3CCOC3=O)cc2)nn1` the inhibition was 50% (lasR; reporter gene, antagonist; 10 µM, together with: OdDHL 10 nM).
With `CC(=O)NC(Cc1ccc(Br)c(Cl)c1)C(=O)N[C@@H](C)C(=O)N1CCC[C@H]1C(=O)N1CCC[C@H]1C(=O)N[C@@H](CCC(=O)O)C(=O)N[C@@H](Cc1c[nH]cn1)C(=O)N[C@@H](CO)C(=O)N[C@H](C(=O)N[C@@H](C)C(N)=O)[C@@H](C)OP(=O)(O)O` (stereo partly shown) the inhibition was 0.29% (RPS6KB1 (Homo sapiens, UniProt P23443); enzyme activity, inhibitor; 10 µM).
The inhibition of `CCCCc1nc2ccc(/N=N/c3ccc(Cl)cc3)cc2c(-c2ccccc2)c1I` is reported as 60.9% (APP; amyloid aggregation, inhibitor, fluorescence; 25 µM).
`C/C(=N\OCCCN1CCCCC1)c1ccc(C(F)(F)F)cc1` gave an inhibition of 10.4% (HTR2B (Homo sapiens, UniProt P41595); antagonist, IP-One; 10 µM).
Under inhibition, `CC1CN1c1cc(O)c2nc(N)sc2c1` (stereo not shown) is recorded as “inactive” (HDACs, sirtuins and HATs; 50 µM, 1 h).
For `Clc1ccccc1C(c1ccccc1)(c1ccccc1)n1cccn1`, inhibition read “inhibited” (Intermediate conductance calcium-activated potassium channel protein 4 (Kcnn4, Mus musculus, UniProt O89109); Ca2+-activated K+ current, inhibitor, whole-cell patch-clamp; acutely isolated microglia, 10-month-old 5xFAD mice; 1 µM, together with: 1 µM free Ca2+).
With `O=C(Cn1cc(C2CC2)nn1)N[C@H]1CCOC1=O` the inhibition was 52% (lasR; reporter gene, antagonist; 100 µM, together with: OdDHL 10 nM).
`CCS(=O)(=O)N1CCN(CC(=O)Nc2ccc(/C=C/C(=O)c3ccc(OC)c(OC)c3)cc2)CC1` has an inhibition of 24.1% (MAOA (Homo sapiens, UniProt P21397); enzyme activity, inhibitor, fluorescence; 100 µM).
`CCCCc1cn(-c2ccc(C(=O)N[C@H]3CCOC3=O)cc2)nn1` gave an inhibition of 13% (lasR; reporter gene, antagonist; 10 µM, together with: OdDHL 10 nM).
The inhibition of `[Cl][Au-][P+](c1ccccc1)(c1ccccc1)c1cc[cH-]c1.[Cl][Au-][P+](c1ccccc1)(c1ccccc1)c1cc[cH-]c1.[Cl][Ti+2][Cl]` is reported as no less than 50% (AKT3 (Homo sapiens, UniProt Q9Y243); kinase activity; 10 µM).
`CC1N=C(c2ccccc2F)c2cc(Nc3ccccc3C(F)(F)F)ccc2NC1=O` (stereo not shown) gave an inhibition of 24% (ADRA2A (Homo sapiens, UniProt P08913); ligand displacement, radioligand; 10 µM).
The inhibition of `CCCCCc1nc2ccc(/N=N/c3ccc([N+](=O)[O-])cc3)cc2c(-c2ccccc2)c1I` is reported as roughly 75% (APP; amyloid aggregation, inhibitor, fluorescence; 25 µM).
Under inhibition, `CC(C)C(=O)Nc1ccccc1-c1nn[nH]n1` is recorded as “no inhibition” (Metallo-beta-lactamase type 2 (Serratia marcescens, UniProt P52699); enzyme activity, inhibitor; concentration not given).
